Assay results gathered from unrelated publications.
Each numbered part is a random draw from the data of one study; scales do not carry over between parts. Substitutions count along the parent as printed.

Sample 1
Target: RNA binding protein fox-1 homolog 2, RRM domain, GST-SBP tag (RBFOX2, Homo sapiens, UniProt O43251-10, residues 100-194)
Method: RNA Bind-n-Seq
Form: RNA
Matrix: in vitro
Concentration: 365 nM
Notes: natural RNA segment, single round, ends assumed
Reference: no-protein control
Reading: higher = stronger binding
Measurement: RBNS enrichment (R)
Target sequence (chain): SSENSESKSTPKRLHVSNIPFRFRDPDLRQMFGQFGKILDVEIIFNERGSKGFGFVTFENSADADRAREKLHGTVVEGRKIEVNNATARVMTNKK
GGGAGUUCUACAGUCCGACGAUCUUCAUCUUUAGCACAAGGAAGGUAUUUAAGUGAGCCAGAGACAAACAGAGCCAUUUUAGUCUUCAUAGUUAUCUGCUAAGAGAGAUAAUGAGCUGACUGUCUAUUUUAAAUGGAAUUCUCGGGUGCCAA: 0.346
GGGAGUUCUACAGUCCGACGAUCACAGAGGCAGAUGCCAAACCAAAGACAGAUUGCUUAACCAACAGAUGGGCGCUGACCCCCUAUCCAGAAUCACAUGCACAAGUUUUUACCUAGCCAGUUGUUUCUGAGGAUGGAAUUCUCGGGUGCCAA: 0.224
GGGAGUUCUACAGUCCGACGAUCGACCUGCGCUCCAGGGUGGUCUCGGUCCCAGGGUGGUCCCAGCUGGUGGGAGCCUCUGGCUGCAUCUGUGCAGCCACAUCCUUGUACAGAGGCAUAGGUUACCACCCCCAUGGAAUUCUCGGGUGCCAA: 0.159
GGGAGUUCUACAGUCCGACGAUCCCAGGCAGAGUUUUAGUAUGACAUUGUGUGAUGAAUGCAAAUCAACACACAGAAUAAAUGGCUCUUUCUCACCUUAUGUCAUGAAUGUUUUGGACAUCAAGCAUCCUAAUUGGAAUUCUCGGGUGCCAA: 1.33
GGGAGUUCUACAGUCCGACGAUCUCUGGAACACAGCCUGAUCUACAAGUACCAGCAUCGUUCUUUUGCCAGCCAGUGAUUUUCUUUUAAAUGAAAAUGAUGGGAUGAGAUGUAAUUUUAGAUCGGGAAGAGAGUGGAAUUCUCGGGUGCCAA: 1.04
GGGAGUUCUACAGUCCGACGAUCCGCCCCUUCCCUCCAGGAUCAGAAGCAGCACCCACCCUUGCCAUGAUAAACAUUCCAUCCCCUGCUGUUCUGAUAAUGUGAAGUCAGAUGAGGGUUCCCAGGUUAUGUGGUGGAAUUCUCGGGUGCCAA: 1.46
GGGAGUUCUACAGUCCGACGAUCAGAUUUCUCCUCUCCAUGAAGCUGGCACUGCCUCCACCUCCUUCCCUUUCUCCUGUGGACUAGCCUGGAAAGGAGGCGCUUCUAGGCCACCUGGCACAGUUUUCUCUGAAUGGAAUUCUCGGGUGCCAA: 0.346
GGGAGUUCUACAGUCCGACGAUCUAGAAUGAAGUAUCUUAGUUUAAAGGGUAAGAGAGAAGUUGUUUCUGGUUUUUCCUUGCCCCUGUGUGAAAAUAGGUCCUAAAUGACUGACUUCACUGCAUUAGACCCUAUGGAAUUCUCGGGUGCCAA: 0.606
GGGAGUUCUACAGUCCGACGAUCGACUCCGUCCUUGUCUCCUGUAAUAUACUGACCCUGUGUGCAGAGGCGUUUUUGUUCCCUUUUGUUUUUAUUUUUACCUACAUGUACUAUUUACCUUCUGUGUCCUGGCCUGGAAUUCUCGGGUGCCAA: 0.445
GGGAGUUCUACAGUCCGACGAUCCUAUGGCAGUCCUGACUUGCUGAUGACCAUAUGCUGGUGACCUACAAAUCGGGAUCCUGCCAUAUGGGGUCGCCACUGGACUUUCUGCACUGGAUCUCAAGAGCGUUGAGUGGAAUUCUCGGGUGCCAA: 0.235
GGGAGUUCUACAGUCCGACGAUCCCUCAGUCCUGUGUCCCUUUUUCUCUUGGGUUGAGCCUGUGGCUCAUCCCCUUUGUCCUUUUGGGAAGCAAGUAUCUAUUCCAGUCUCAAGUCCUGCAGUUGCUGGAGCGUGGAAUUCUCGGGUGCCAA: 0.493
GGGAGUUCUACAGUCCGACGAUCAUCAAAUAUUUAUGUGUAAAAUGUAUGUUUUACCUCCUUAAAAUGCCUAAAAGUUAGUUAAUAGUUACUUUGGUUUAACCUAUACACAAUGAUUAAGUGCAUUUAAUAUUUGGAAUUCUCGGGUGCCAA: 0.442

Sample 2
Target: Histone acetyltransferase KAT6A, both winged helices, GST fusion (KAT6A, Homo sapiens, UniProt Q92794, residues 1-181)
Method: protein binding microarray
Form: double-stranded DNA, one strand shown
Matrix: in vitro
Concentration: not given
Notes: 8-mer, flanks averaged, mean of 2 arrays, mostly near background
Reference: not given
Reading: higher = stronger binding
Measurement: E-score
Target sequence (chain): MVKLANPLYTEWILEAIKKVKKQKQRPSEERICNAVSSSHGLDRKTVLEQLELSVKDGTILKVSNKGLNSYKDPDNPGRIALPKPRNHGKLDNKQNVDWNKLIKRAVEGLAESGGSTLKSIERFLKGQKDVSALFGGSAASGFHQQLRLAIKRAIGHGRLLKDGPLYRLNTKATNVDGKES
TCAAAAGA: 0.0458
ATGGGGGA: -0.241
CTCGGGAA: 0.118
TCGACCAA: -0.0999
AGAAGTGC: -0.136
AGGCGGAC: 0.141
AACTTGCA: -0.128
ACCGCTAG: 0.147
AGTGGCGA: 0.0378
GACAGGTC: -0.13
ACTATTCG: -0.0929
ACGCGAAC: 0.183
AGACAGTG: -0.106
ATACCTAT: -0.184
GGTGTGAC: 0.0588
CCCCGCCA: 0.165
ATAGCTGC: -0.129

Sample 3
Target: ABI1, truncated, D143A, DHFR fusion (Arabidopsis thaliana)
Method: DHFR PCA, deep sequencing
Matrix: yeast
Notes: methotrexate growth selection, single substitutions
Together with: (+)-ABA 2500 µM
Reference: wild-type fitted maximum
Reading: higher = stronger binding
Measurement: relative binding score
Starting sequence: PYL1, truncated, DHFR fusion (Arabidopsis thaliana); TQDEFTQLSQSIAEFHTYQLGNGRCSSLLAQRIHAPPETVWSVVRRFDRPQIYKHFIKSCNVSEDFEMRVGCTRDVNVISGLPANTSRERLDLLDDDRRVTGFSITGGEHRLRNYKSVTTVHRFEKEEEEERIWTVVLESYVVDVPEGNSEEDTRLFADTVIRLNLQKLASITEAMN; partner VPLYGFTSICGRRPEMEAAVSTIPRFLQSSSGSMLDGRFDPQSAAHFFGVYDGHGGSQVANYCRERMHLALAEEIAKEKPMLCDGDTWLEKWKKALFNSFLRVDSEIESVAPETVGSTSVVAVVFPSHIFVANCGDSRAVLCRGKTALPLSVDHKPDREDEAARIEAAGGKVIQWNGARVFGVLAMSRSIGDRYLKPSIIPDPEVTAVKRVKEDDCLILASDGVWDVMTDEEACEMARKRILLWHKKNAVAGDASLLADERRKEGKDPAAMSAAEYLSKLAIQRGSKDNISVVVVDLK
K168T: 96.4%
E64V: 92.9%
S171C: 94.7%
V143R: -6.14%
N165I: 2.77%
E4C: 99.4%
H110I: 15.3%
D48V: 62.1%
E14H: 89.7%
S59L: 89.9%
L94T: 87.9%
R74H: 19.7%
G107P: 69.3%
M176V: 96.8%
T135Y: -2.06%
Q51H: 94.1%
E129S: 103%
L164C: 102%
D65A: 94.8%
V62D: 65.1%

Sample 4
Target: Ras GTPase-activating protein-binding protein 1, C-terminal RGG region (G3BP1, Homo sapiens, UniProt Q13283)
UniProt Q13283, sequence (whole entry, looked up): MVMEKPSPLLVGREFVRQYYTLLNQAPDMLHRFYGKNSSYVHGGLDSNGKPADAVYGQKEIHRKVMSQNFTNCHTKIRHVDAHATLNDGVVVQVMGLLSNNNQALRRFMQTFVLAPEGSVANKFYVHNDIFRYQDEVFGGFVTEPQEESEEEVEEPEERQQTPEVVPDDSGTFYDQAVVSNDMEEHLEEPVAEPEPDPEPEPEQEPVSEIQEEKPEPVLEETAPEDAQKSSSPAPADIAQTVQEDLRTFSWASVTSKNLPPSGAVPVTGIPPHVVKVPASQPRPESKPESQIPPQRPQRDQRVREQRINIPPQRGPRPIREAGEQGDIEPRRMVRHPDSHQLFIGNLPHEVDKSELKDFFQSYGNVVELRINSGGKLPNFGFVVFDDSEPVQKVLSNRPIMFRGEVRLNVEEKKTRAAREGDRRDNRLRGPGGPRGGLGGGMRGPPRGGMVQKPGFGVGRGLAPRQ
Method: RNA Bind-n-Seq
Form: RNA
Matrix: in vitro
Concentration: 1 µM
Notes: whole 134-nt RNA, ends assumed
Together with: 150 mM KCl
Reference: input library
Reading: higher = stronger binding
Measurement: log2 enrichment
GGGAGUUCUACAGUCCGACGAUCAAGUCCUGUGCUACACAUCGUAUGUACCGAAUCGGUGGAAAAAAAGGAAAAAAAGGAAAGUAUUAUGUUACGCCGUUCGGAUCUGCACUUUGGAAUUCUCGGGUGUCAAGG: -1.86
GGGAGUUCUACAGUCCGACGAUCGCAGGAAGUAAAAACUAAUGGAAAUGCUUCGGAUAGUGGCAGGGGUGGGGGUUGCUAAGGAAAGGGUGGGAUGGGAGUGGGUAAAGAGUUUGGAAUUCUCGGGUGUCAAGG: 1.81
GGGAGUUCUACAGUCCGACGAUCACCAUGCAGGUGGGCAUCUUUGGGAAGUGGGGCAAGGGGGGGAUAGGGAGGGGGGUAACACUUUGGGAACAGGUGAAACCAGGUCGUUUCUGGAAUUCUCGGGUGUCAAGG: -0.532
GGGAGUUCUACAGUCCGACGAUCUCCUGUGCUACACAUCGUAUGUACCGAAUCGGGUUUUUGGGGUUUUUGGGUUUUUGGGGAAAGUAUUAUGUUACGCCGUUCGGAUCUGCAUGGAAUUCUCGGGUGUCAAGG: 0.44
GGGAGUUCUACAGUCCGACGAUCUAACUUUAGAGGAGGAUCUGAUGGAUAUGGCACUGGACGUGGAUUUGGGGAUGGCUAUAAUGGGUAUGGAGGAGGACCUGGAGGUGGCAAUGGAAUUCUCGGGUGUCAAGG: -0.888
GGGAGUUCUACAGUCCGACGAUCUCCUCAAGUCCUGUGCUACACAUCGUAUGUACCGAAUCGGAGGGAGGGAGGAAAGUAUUAUGUUACGCCGUUCGGAUCUGCACUUCCAGCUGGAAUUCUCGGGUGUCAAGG: -1.01
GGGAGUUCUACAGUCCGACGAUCUAACUUUAGAGGAGGAUCUGAUGGAUAUGGCAGUGGACGUGGAUUUGGGGAUGGCUAUAAUGGGGAUGGAGGAGGACCUGGAGGUGGCAAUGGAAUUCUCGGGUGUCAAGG: -0.761
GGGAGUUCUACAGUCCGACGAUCCCUGUGCUACACAUCGUAUGUACCGAAUCGGGAAAAAAAGGGGAAAAAAAGGAAAAAAAGGAAAGUAUUAUGUUACGCCGUUCGGAUCUGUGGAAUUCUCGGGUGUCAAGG: -1.64
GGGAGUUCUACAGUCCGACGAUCUCCUGUGCUACACAUCGUAUGUACCGAAUCGGGUUUUUUGGGUUUUUUGGUUUUUUGGGAAAGUAUUAUGUUACGCCGUUCGGAUCUGCAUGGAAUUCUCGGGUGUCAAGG: -0.629
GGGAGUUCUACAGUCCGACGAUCUAACCUUAGAGGAGGAUCUGAUGGAUAUGGCAGUGGACGUGGAUUUGGGGAUGGCUAUAAUGGGUAUGGAGGAGGACCUGGAGGUGGCAAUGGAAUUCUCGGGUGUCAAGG: -0.743
